# Results from different studies.
# Compare with care: the assays were run in different laboratories. Numbers after ± are the reported error.
SMILES,assay,test system,setting,how to read,quantity,value
COc1ccc2nc([S@@+]([O-])Cc3ncc(C)c(OC)c3C)[nH]c2c1,HPLC,"human CYP2C19 poor metabolizers, plasma","oral, 40 mg/day, day 1, pantoprazole",,Tmax,3.6 ± 0.89 h
CCOc1c([C@H](C)n2nc(C)c3c(N)ncnc32)cc(Cl)c(F)c1[C@@H]1CNC(=O)C1,,"healthy fasted humans, plasma","oral, 20 mg",,Tmax median,1 h
CC(C)(C)OC[C@@H]1C(=O)NCCN1C(=O)C[C@H](N)Cc1cc(F)c(F)cc1F,,human,"5 mg once daily, day 10, median",,Tmax at steady state,5 h
CS(=O)(=O)Nc1ccc(C(=O)O[C@@H](Cc2c(Cl)c[n+]([O-])cc2Cl)c2ccc(OC(F)F)c(OCC3CC3)c2)cc1OCC1CC1,,"human, plasma","inhaled, 1200 µg once daily, day 7, single-dose dry powder inhaler",,tmax,2 h
CNCc1ccc(-c2[nH]c3cc(F)cc4c3c2CCNC4=O)cc1,,"human, plasma","oral, 300 mg, fasted, median",,Tmax,4.09 h
CCN1CCN(Cc2ccc(Nc3ncc(F)c(-c4cc(F)c5nc(C)n(C(C)C)c5c4)n3)nc2)CC1,,"human, plasma","oral, 200 mg, single dose",,tmax,~6 h
O=C(c1cccnc1-c1ccncc1)N1CCC(O)(Cc2ccccc2)CC1,,"healthy human, plasma","oral, 400 mg once daily, day 1",,tmax,0.33 h
CC[C@H](C)[C@H](NC(=O)[C@H](CC(C)C)NC(=O)[C@H](Cc1c[nH]c2ccccc12)NC(=O)[C@H](C)NC(=O)[C@@H](NC(=O)[C@H](Cc1ccccc1)NC(=O)[C@H](CC(=O)O)NC(=O)[C@H](CCCNC(=N)N)NC(=O)[C@H](C)NC(=O)[C@H](C)NC(=O)[C@H](CC(C)C)NC(=O)[C@H](C)NC(=O)[C@H](CC(=O)O)NC(=O)[C@H](CC(C)C)NC(=O)[C@@H](NC(=O)[C@@H](NC(=O)[C@H](C)NC(=O)[C@H](CC(C)C)NC(=O)[C@H](CCC(=O)O)NC(=O)[C@H](CO)NC(=O)[C@H](CO)NC(=O)[C@H](Cc1ccccc1)NC(=O)[C@@H](NC(=O)CNC(=O)[C@H](CCC(=O)O)NC(=O)CNC(=O)[C@@H](N)Cc1cnc[nH]1)[C@@H](C)O)[C@@H](C)O)[C@@H](C)CC)[C@@H](C)CC)C(=O)N[C@@H](C)C(=O)N[C@H](C(=O)N[C@@H](CCCCN)C(=O)N[C@H](C(=O)N[C@H](C(=O)N[C@@H](CC(=O)O)C(=O)N[C@@H](CCCCN)C(=O)N[C@@H](CCCCN)C(=O)N[C@@H](CCCCN)C(=O)N[C@@H](CCCCN)C(=O)N[C@@H](CCCCN)C(=O)N[C@@H](CCCCN)C(N)=O)[C@@H](C)O)[C@@H](C)CC)[C@@H](C)O,immunoaffinity LC-MS/MS,"healthy human subjects, plasma","intravenous infusion, 1 mg single dose, infused over 15 min",,tmax,0.42 h
CC(C)C[C@H](NC(=O)[C@H](CCc1ccccc1)NC(=O)CN1CCOCC1)C(=O)N[C@@H](Cc1ccccc1)C(=O)N[C@@H](CC(C)C)C(=O)[C@@]1(C)CO1,,"human patients, plasma","intravenous infusion 10 min, 27 mg/m^2, day 16 of cycle 1, KRd regimen",,Tmax (median),9 min
CNC(=O)c1ccc(-c2cnc3ncc(Cc4ccc5ncccc5c4)n3n2)cc1F,,"human, severe hepatic impairment (Child-Pugh C), plasma","oral, 200 mg single dose",,Tmax (median),90 min
CNc1nc(Nc2ccc(-n3cnc(C)n3)c(OC)c2)nc2c1CC[C@H]2c1ccc(F)cc1,,"healthy humans, both sexes, plasma","oral, 300 mg single dose, high-fat meal",baseline: fasted,Tmax prolongation,1.5 h
CCCCCCCC(=O)N[C@H](CN1CCCC1)[C@H](O)c1ccc2c(c1)OCCO2,,"human healthy adults, plasma","oral, 84 mg twice daily, median, together with: paroxetine 30 mg daily",,tmax,3 h

# A few entries again:
SMILES,assay,test system,setting,how to read,quantity,value
CNCc1ccc(-c2[nH]c3cc(F)cc4c3c2CCNC4=O)cc1,,"human, plasma","oral, 300 mg, fasted, median",,Tmax,4.09 h
CS(=O)(=O)Nc1ccc(C(=O)O[C@@H](Cc2c(Cl)c[n+]([O-])cc2Cl)c2ccc(OC(F)F)c(OCC3CC3)c2)cc1OCC1CC1,,"human, plasma","inhaled, 1200 µg once daily, day 7, single-dose dry powder inhaler",,tmax,2 h
